Measurements collected from several papers.
Lines come from different studies, so protocols differ. Numbers after ± are the reported error.
Uncharacterized protein: Uncharacterized protein (Trypanosoma brucei brucei, UniProt Q386Q8)
ppa: Inorganic pyrophosphatase (ppa, Escherichia coli, UniProt P0A7A9)
UniProt P0A7A9, sequence (whole entry, looked up): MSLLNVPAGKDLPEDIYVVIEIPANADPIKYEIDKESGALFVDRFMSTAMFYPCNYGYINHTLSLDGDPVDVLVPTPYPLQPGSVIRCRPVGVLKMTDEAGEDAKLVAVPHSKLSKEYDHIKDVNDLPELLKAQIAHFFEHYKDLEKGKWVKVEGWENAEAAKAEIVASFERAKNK
TDP1: Tyrosyl-DNA phosphodiesterase 1 (TDP1, Homo sapiens, UniProt Q9NUW8)
UniProt Q9NUW8, sequence (whole entry, looked up): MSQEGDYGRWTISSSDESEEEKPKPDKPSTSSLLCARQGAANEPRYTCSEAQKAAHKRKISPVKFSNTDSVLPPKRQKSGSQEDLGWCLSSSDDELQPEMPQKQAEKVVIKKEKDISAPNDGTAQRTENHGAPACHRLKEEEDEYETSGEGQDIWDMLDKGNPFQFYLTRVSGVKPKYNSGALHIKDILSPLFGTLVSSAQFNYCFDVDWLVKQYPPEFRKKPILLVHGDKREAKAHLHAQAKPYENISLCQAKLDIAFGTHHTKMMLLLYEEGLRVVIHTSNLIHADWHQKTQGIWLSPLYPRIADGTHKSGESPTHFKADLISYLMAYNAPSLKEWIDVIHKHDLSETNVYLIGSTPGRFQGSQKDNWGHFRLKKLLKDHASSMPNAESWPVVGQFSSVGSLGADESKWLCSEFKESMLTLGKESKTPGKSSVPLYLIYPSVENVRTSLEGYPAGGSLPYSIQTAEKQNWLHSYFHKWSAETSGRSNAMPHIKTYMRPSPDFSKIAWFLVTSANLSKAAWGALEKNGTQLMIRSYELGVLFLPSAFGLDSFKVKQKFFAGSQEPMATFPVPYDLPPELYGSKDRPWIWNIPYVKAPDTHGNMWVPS
UniProt Q9UKP6, sequence (whole entry, looked up): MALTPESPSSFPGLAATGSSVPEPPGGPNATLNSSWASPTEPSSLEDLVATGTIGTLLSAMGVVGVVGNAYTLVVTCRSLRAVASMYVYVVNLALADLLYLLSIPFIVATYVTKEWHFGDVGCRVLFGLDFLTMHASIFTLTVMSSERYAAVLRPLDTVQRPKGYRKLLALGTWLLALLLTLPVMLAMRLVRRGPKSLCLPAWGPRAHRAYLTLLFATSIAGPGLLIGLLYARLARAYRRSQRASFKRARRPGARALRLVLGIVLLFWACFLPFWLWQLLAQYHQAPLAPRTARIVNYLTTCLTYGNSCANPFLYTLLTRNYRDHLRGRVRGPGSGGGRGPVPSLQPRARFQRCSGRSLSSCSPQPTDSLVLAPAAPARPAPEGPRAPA
UniProt P41146, sequence (whole entry, unmodified, looked up): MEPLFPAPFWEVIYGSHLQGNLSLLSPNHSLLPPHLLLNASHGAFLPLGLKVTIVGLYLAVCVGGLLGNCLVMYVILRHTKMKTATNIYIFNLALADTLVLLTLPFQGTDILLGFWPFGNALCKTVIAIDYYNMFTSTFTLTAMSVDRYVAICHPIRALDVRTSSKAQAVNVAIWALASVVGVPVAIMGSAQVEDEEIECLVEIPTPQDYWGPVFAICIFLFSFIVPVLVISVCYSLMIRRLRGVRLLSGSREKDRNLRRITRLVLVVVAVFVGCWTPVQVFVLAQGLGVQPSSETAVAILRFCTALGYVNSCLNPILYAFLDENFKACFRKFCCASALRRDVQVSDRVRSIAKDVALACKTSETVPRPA
UniProt O09047, sequence (whole entry, looked up): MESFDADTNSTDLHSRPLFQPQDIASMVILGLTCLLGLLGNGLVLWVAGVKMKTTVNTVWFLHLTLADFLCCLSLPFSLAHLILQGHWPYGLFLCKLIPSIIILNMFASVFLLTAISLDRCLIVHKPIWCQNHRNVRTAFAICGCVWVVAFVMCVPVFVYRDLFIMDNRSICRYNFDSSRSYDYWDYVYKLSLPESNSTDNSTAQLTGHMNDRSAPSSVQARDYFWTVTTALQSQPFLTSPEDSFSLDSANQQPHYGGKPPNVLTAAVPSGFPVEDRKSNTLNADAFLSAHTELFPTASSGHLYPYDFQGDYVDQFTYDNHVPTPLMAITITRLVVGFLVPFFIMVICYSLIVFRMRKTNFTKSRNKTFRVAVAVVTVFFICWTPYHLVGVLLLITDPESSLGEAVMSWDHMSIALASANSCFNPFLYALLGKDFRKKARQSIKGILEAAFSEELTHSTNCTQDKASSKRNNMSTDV
UniProt P22310, sequence (whole entry, looked up): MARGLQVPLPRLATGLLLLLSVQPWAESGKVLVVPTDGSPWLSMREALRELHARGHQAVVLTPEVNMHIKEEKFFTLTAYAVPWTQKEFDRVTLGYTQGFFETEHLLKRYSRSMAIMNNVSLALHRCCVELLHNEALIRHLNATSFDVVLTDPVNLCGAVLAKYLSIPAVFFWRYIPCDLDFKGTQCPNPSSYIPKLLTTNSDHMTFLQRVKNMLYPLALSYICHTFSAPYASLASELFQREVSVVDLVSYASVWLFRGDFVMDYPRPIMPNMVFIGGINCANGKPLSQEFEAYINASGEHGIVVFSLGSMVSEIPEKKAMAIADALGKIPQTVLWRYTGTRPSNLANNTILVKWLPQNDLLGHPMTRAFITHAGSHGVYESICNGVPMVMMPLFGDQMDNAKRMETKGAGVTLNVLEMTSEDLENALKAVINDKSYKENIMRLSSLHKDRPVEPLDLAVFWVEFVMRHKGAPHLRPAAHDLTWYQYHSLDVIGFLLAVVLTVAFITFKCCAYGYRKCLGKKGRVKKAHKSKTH
UniProt Q15391, sequence (whole entry, unmodified, looked up): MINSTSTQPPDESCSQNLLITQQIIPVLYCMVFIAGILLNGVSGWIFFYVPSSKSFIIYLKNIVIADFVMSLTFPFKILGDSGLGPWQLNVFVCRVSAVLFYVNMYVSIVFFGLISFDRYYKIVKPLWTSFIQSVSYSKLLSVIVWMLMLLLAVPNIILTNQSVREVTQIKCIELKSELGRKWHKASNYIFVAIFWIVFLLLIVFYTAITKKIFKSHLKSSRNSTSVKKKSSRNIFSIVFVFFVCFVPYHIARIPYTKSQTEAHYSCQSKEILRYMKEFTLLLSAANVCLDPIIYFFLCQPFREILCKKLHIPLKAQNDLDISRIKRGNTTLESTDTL
UniProt Q13237, sequence (whole entry, looked up): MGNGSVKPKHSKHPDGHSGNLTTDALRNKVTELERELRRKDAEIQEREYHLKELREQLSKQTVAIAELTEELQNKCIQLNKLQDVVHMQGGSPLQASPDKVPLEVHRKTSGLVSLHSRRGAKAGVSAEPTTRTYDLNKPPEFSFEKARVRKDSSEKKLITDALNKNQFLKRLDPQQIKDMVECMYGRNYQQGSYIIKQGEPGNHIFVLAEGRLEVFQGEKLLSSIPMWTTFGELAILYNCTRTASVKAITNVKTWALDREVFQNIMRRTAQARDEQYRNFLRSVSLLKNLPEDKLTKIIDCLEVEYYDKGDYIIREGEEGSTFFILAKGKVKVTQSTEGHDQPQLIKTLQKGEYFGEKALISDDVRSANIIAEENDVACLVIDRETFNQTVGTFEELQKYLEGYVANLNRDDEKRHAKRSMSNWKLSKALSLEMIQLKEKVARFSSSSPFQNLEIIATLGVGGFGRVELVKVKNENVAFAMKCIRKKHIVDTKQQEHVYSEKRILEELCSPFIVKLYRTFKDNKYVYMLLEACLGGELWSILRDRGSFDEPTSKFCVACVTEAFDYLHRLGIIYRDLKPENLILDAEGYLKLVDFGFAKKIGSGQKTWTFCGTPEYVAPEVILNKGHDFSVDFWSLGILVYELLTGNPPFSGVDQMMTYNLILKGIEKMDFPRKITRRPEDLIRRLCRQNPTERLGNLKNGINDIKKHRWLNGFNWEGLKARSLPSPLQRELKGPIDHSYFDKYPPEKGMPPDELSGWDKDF
UniProt Q9UQB9, sequence (whole entry, looked up): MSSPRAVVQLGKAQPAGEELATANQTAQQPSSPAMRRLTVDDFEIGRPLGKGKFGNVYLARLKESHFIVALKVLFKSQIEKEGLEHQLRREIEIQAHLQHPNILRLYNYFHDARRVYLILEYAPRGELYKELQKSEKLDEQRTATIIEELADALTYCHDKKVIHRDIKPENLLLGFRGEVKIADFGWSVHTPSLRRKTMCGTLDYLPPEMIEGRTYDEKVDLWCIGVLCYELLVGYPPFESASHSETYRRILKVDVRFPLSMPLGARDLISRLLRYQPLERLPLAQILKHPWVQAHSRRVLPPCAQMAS

For `COc1ccc2c(c1OC)C(=O)N(c1nc3ccccc3s1)C2`, the IC50 was 74.7 µM (Uncharacterized protein; enzyme activity, inhibitor, coupled colorimetric; added: E. coli pyrophosphatase coupling).
`CC(=O)OC1CCC2(C)C(CCC3(C)C2CC=C2C4C(C)C(C)CCC4(C(=O)O)CCC23C)C1(C)C` (centres unmarked) gave a Ki of 0.64 µM (UGT1A4 (Homo sapiens, UniProt P22310); enzyme activity, inhibitor).
With `CC(=O)C1=C(c2ccc(OC(F)F)cc2)N(C(C)=O)n2cnnc2S1` the IC50 was 46.1 µM (ppa; inhibitor, counter-screen, coupling enzyme alone).
The inhibition of `Cn1nc(C=NOCc2ccc(-c3nc4cc(-c5ccccc5)ccn4c3Nc3ccc(C(=O)O)cc3)cc2)cc1-c1ccccc1` is reported as 28.2% (TDP1; enzyme activity, inhibitor; 100 µM, unpurified compound).
`COc1ccc(OC)c(C2=Nn3c(nnc3-c3ccccc3)SC2)c1` gave an IC50 of greater than 100 µM (ppa; enzyme activity, inhibitor).
For `O=C(NCCCN1CCC2(CC1)OCc1ccccc12)C1CCCN1Cc1ccccc1` (centres unmarked), the Ki was greater than 10 µM (Nociceptin receptor (OPRL1, Homo sapiens, UniProt P41146, D130A)).
With `Cc1nn(-c2cccc(N)c2)c(=O)c2cnc(Nc3ccc(N4CCNCC4)cc3)nc12` the IC50 was 3.42 µM (Aurora kinase C (AURKC, Homo sapiens, UniProt Q9UQB9); enzyme activity, inhibitor).
`CC(C)C[C@H](NC(=O)[C@H](C)NC(=O)[C@H](CO)NC(=O)[C@@H]1CCCN1C(=O)[C@@H]1CCCN1C(=O)[C@H](CCC(N)=O)NC(=O)[C@H](CC(C)C)NC(=O)[C@@H](N)[C@@H](C)O)C(=O)N[C@@H](CCCNC(=N)N)C(=O)N[C@@H](CCCNC(=N)N)C(=O)N[C@@H](CCCNC(=N)N)C(=O)N[C@@H](Cc1c[nH]cn1)C(=O)N[C@@H](Cc1ccc(O)cc1)C(=O)N[C@@H](Cc1c[nH]cn1)C(=O)N[C@@H](Cc1c[nH]cn1)C(=O)N[C@@H](C)C(=O)N[C@@H](CC(C)C)C(=O)N1CCC[C@H]1C(=O)N1CCC[C@H]1C(=O)N[C@@H](CO)C(=O)N[C@@H](CCCNC(=N)N)C(=O)O` gave an EC50 of 0.457 µM (C3a anaphylatoxin chemotactic receptor (C3ar1, Mus musculus, UniProt O09047); beta-arrestin 1 recruitment, agonist, NanoBiT; mouse).
`O=c1ccn([C@@H]2O[C@H](COP(=O)(O)CP(=O)(O)O)[C@@H](O)[C@H]2O)c(=S)[nH]1` has an EC50 of 0.165 µM (P2Y purinoceptor 14 (P2RY14, Homo sapiens, UniProt Q15391, V93G); calcium mobilisation, agonist; cells with Gαqi5; receptor mutant V93G).
`COc1ccc(OC)c(C2=Nn3c(nnc3C3CCCCC3)SC2)c1` has an IC50 of 48.9 µM (Uncharacterized protein; inhibitor, coupled colorimetric; Trypanosoma brucei).
The Kd of `Cc1c[nH]c2nccc(-c3ccc(C(=O)N[C@@H]4c5c(F)cc(C(F)F)cc5C[C@@H]4O)cn3)c12` is reported as 0.165 µM (PRKG2 (Homo sapiens, UniProt Q13237); binding, competition with immobilised ligand).
`CC(C)[C@H](NC(=O)[C@@H]1CSSC(C)(C)[C@H](NC(=O)[C@@H](N)CC(=O)O)C(=O)N[C@@H](Cc2ccccc2)C(=O)N[C@H](Cc2c[nH]c3ccccc23)C(=O)N[C@@H](CCCN)C(=O)N[C@@H](Cc2ccc(O)cc2)C(=O)N1)C(=O)O` gave an EC50 of 0.0011 ± 0.0009 µM (UTS2R (Homo sapiens, UniProt Q9UKP6); beta-arrestin 2 recruitment, agonist, BRET2 biosensor; HEK293; 10 min).
The Kd of `NCCCC[C@H](NC(=O)[C@H](C/C=C\C[C@H](NC(=O)[C@@H]1CCCN1)C(=O)N[C@@H](CCCCN)C(=O)NCCCN)NC(=O)[C@@H]1CCCN1)C(=O)NCCCN` is reported as 0.115 µM (HIV-1 frameshift site RNA; SPR).
`O=C(O)c1ccc(Nc2c(-c3ccccc3)nc3ccc(CON=Cc4ccc(CN5C(=O)c6ccccc6C5=O)o4)cn23)cc1` gave an inhibition of 35.1% (TDP1; enzyme activity, inhibitor; 100 µM, unpurified compound).

A few entries again:
`O=c1ccn([C@@H]2O[C@H](COP(=O)(O)CP(=O)(O)O)[C@@H](O)[C@H]2O)c(=S)[nH]1` has an EC50 of 0.165 µM (P2Y purinoceptor 14 (P2RY14, Homo sapiens, UniProt Q15391, V93G); calcium mobilisation, agonist; cells with Gαqi5; receptor mutant V93G).
With `Cc1nn(-c2cccc(N)c2)c(=O)c2cnc(Nc3ccc(N4CCNCC4)cc3)nc12` the IC50 was 3.42 µM (Aurora kinase C (AURKC, Homo sapiens, UniProt Q9UQB9); enzyme activity, inhibitor).
